Results collected from several papers.
A part holds a random share of what one study measured. Substitutions count along the parent as printed.
Chain of UniProt P06239 (whole entry, looked up): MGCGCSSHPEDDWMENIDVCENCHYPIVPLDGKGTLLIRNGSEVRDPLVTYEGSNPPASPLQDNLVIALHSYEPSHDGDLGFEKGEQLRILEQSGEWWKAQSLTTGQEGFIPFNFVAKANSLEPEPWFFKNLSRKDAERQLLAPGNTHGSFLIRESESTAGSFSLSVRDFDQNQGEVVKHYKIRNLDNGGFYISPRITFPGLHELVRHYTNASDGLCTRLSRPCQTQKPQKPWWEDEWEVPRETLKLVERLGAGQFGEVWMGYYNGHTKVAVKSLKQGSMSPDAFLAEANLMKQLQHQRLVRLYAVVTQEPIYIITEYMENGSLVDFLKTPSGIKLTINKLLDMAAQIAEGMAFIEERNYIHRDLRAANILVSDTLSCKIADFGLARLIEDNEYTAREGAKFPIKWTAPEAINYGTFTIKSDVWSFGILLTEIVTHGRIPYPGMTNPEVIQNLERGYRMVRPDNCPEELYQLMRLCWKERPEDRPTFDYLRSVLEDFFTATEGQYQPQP
Chain of UniProt P51957 (whole entry, looked up): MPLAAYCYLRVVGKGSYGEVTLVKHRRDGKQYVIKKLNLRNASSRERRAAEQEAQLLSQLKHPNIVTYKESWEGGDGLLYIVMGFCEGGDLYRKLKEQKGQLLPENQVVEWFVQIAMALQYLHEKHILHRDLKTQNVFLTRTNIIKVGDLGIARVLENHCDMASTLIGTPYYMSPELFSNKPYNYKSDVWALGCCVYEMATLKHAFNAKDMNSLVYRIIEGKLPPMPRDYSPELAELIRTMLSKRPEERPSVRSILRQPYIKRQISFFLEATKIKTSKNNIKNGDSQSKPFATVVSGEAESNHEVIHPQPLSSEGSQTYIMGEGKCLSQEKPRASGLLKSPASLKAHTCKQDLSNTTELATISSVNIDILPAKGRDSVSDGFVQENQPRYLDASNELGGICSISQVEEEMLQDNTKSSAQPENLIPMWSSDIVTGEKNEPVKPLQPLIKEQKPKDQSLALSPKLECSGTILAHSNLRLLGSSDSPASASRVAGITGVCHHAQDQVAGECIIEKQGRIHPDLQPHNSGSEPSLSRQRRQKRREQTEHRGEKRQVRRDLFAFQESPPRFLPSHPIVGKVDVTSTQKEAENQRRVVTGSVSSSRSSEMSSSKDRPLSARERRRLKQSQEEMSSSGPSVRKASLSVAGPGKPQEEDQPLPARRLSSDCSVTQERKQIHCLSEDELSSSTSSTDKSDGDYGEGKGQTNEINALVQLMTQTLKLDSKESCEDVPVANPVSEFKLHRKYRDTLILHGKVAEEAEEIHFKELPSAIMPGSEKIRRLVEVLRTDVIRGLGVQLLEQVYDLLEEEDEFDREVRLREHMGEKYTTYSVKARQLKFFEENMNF

Block 1
Target: Centromere-binding protein 1, full length, His-tagged (CBF1, Saccharomyces cerevisiae, UniProt P17106, residues 1-351)
Chain of UniProt P17106 (whole entry, looked up): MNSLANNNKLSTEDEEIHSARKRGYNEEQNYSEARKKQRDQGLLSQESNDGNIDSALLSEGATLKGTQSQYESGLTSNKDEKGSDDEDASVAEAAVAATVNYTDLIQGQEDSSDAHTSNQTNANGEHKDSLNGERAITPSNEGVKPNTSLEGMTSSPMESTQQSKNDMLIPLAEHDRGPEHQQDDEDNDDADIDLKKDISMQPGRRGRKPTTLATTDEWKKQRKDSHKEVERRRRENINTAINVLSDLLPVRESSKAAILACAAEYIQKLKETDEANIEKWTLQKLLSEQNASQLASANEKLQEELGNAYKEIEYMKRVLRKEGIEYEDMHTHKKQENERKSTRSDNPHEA
Technique: competition protein-binding microarray
Form: double-stranded DNA, one strand shown
Medium: in vitro
Concentration: 2 µM
Setting: whole 60-bp probe, lowest competitor level
Added: Pho4 competitor, 0.05 µM
Direction: higher = stronger binding
Constant ends, left off below: … GTCTTGATTCGCTTGACGCTGCTG
| Oligonucleotide | fluorescence intensity [a.u.] |
| --- | --- |
| TGCGCAACAACTTGCGTGGTGGGTGTATGTCTAGAA | 73.5 |
| TTTCGAACGGAGCCGTGCGTGCTTTGAGTTTTTTGA | 61 |
| AATCCTGGGGTACCGGTCGTGCCGACGCTCGTATTC | 40.8 |
| TGCTATGTCCCTTCGACCGTGATGGAATGGGAGTGG | 74.2 |
| AGCAGGAATCATACCCACGCATCTCATTTTGCGTTA | 82.3 |
| TGCGCAACAACTTGACCGGTGGGTGTATGTCTAGAA | 59 |
| TGTGGACAGGGTAGATTCGGAGCCGACGCTATAATT | 53.1 |
| GGATACTTGCTTGTTGACGTGCTTTTAGGCATCCTT | 70.5 |

Block 2
Target: CCNA1, cyclin fold, Cln2 fusion (human)
Technique: yeast growth competition, sequencing
Medium: yeast
Setting: weak parent motif
Reference: not given
Direction: higher = stronger binding
Parent: CDKN1A docking peptide (human); SKACRRLFGPVDS; partner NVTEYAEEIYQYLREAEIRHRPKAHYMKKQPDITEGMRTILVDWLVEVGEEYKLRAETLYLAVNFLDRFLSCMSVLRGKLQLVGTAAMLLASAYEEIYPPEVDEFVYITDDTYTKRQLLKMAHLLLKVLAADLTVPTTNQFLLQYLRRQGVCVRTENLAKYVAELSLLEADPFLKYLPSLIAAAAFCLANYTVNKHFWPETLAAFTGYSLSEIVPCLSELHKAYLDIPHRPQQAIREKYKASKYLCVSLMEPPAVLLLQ
| Substitution | normalised enrichment score |
| --- | --- |
| F8V | 0.33 |
| K2D | 0.459 |
| L7N | 0.0615 |
| R5Y | -0.216 |
| F8Y | 0.0397 |
| P10M | 0.12 |
| F8E | -0.54 |
| C4R | 1.44 |

Single results of other studies
FKH2 DNA-binding domain: Fork head protein homolog 2, DNA-binding domain (FKH2, Saccharomyces cerevisiae, UniProt P41813, residues 280-520)
Chain of UniProt P41813 (280-520, looked up): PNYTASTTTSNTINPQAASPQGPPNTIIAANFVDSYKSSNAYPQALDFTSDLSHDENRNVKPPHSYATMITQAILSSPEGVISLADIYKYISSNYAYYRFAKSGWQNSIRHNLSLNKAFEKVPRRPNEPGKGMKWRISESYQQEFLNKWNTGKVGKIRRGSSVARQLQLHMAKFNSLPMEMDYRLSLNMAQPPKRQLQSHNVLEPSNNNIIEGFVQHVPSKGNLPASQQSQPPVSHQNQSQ
| Molecule | target | assay | system | setting | scale | quantity | value |
| --- | --- | --- | --- | --- | --- | --- | --- |
| GACAACA | FKH2 DNA-binding domain | SELEX-seq | double-stranded DNA, one strand shown, in vitro | not given, 7-bp core, flanks averaged | reference: best-binding core, lower = stronger binding | relative binding free energy | 0.911 ddG/RT |
| COc1ccc2c(O[C@@H]3C[C@H]4C(=O)N[C@]5(C(=O)O)CC5/C=C\CCCCC[C@H](NC(=O)OC5CCCC5)C(=O)N4C3)cc(-c3csc(NC(=O)C(C)C)n3)nc2c1C (some centres unmarked) | Tyrosine-protein kinase Lck (LCK, Homo sapiens, UniProt P06239) | cell-free assay, competition with immobilised ligand | – | 1 µM | – | remaining binding | 100% |
| O=C1NC(=O)/C(=C/c2ccc3c(c2)OC(F)(F)O3)S1 | Serine/threonine-protein kinase Nek4 (NEK4, Homo sapiens, UniProt P51957) | enzyme activity, inhibitor | – | 0.5 µM | reference: control | remaining activity | 97.8% |
| CAATACA | FKH2 DNA-binding domain | SELEX-seq | double-stranded DNA, one strand shown, in vitro | not given, 7-bp core, flanks averaged | reference: best-binding core, lower = stronger binding | relative binding free energy | 2.01 ddG/RT |

Excerpt of the above (single results of other studies):
| Molecule | target | assay | system | setting | scale | quantity | value |
| --- | --- | --- | --- | --- | --- | --- | --- |
| GACAACA | FKH2 DNA-binding domain | SELEX-seq | double-stranded DNA, one strand shown, in vitro | not given, 7-bp core, flanks averaged | reference: best-binding core, lower = stronger binding | relative binding free energy | 0.911 ddG/RT |
| COc1ccc2c(O[C@@H]3C[C@H]4C(=O)N[C@]5(C(=O)O)CC5/C=C\CCCCC[C@H](NC(=O)OC5CCCC5)C(=O)N4C3)cc(-c3csc(NC(=O)C(C)C)n3)nc2c1C (some centres unmarked) | Tyrosine-protein kinase Lck (LCK, Homo sapiens, UniProt P06239) | cell-free assay, competition with immobilised ligand | – | 1 µM | – | remaining binding | 100% |
